Experimental data collected from several papers.
Lines come from different studies, so protocols differ. Several values in a cell are separate wells, animals, samples, runs or records. Numbers after ± are the reported error.
STING1 H232R: Stimulator of interferon genes protein (STING1, Homo sapiens, UniProt Q86WV6, H232R)

SMILES	target or system	assay	test system	conditions	scale	quantity	result
CCN(CC)CC#CCNc1ccnc2cc(Cl)ccc12	Salmonella typhimurium	mini-Ames test	TA100	62.5 µg/well, with rat liver S9	–	mean revertants	17 revertants/well
Cc1cc(C)cc(COc2cc3c(cc2OCc2cc(C)cc(C)c2)C2CC(O)(Cc4cn(CCOCCOCCNC(=O)CCCCC5SCC6NC(=O)NC65)nn4)CC(C)N2CC3)c1 (stereo not drawn)	Programmed cell death protein 6 (Homo sapiens, UniProt O75340)	biotinylated probe pull-down, refers to: PDCD6	–	10 µM probe	relative to: heavy over light	SILAC ratio	2.04
N[C@H]1CC[C@H](Nc2nccc(-c3cccnc3Oc3ccc(NC(=O)NC4CC4)c4ccccc34)n2)CC1	Kinase D-interacting substrate of 220 kDa (KIDINS220, Homo sapiens, UniProt Q9ULH0)	kinobead competition pulldown, refers to: KIDINS220	HEK293/HCT116 lysate mixture	10 µM, 1 h, 4 °C	lower = stronger competition	log2 LFQ intensity	20.3 and 19 and 17.8 and 17.1
CCCC[C@H](NC(=O)CCCCCCCNC(=O)CN1CCN(CC(=O)O)CCN(CC(=O)O)CC1)C(=O)N[C@H]1CC(=O)NCCCC[C@@H](C(N)=O)NC(=O)[C@H](Cc2c[nH]c3ccccc23)NC(=O)[C@H](CCCNC(=N)N)NC(=O)[C@@H](Cc2ccccc2)NC(=O)[C@H](Cc2c[nH]cn2)NC1=O [technetium-99m labelled]	–	–	C57 mouse, tumor	intravenous, 0.037 MBq, 0.5 h	–	tissue uptake	28.9 ± 1.81 %ID/g
Cc1ncsc1-c1ccc(C(C)NC(=O)C2CC(O)CN2C(=O)C(NC(=O)CCCCCCCCCCN2CCCC(Nc3ncc(Cl)c(Nc4ccccc4S(=O)(=O)C(C)C)n3)C2)C(C)(C)C)cc1 (stereo not drawn)	22Rv1	RNA-seq, refers to: RIMS1 mRNA	–	concentration not given	relative to: DMSO	log2 fold change	-1.11
O=C(NCC[C@H](NS(=O)(=O)c1ccc(-c2ccccc2)cc1)c1nc2ccccc2[nH]1)c1ccc([N+](=O)[O-])o1	STING1 H232R	reporter gene, inhibitor	THP1-Dual KI-hSTING-R232	24 h, 1 h preincubation, together with: diABZI 500 nM	–	EC50	2.5 µM
O=C1c2sc(-c3ccc(N4CCC(CO)CC4)nc3F)nc2CCN1c1cccnc1	TAR DNA-binding protein 43, aggregated (TARDBP, Homo sapiens, UniProt Q13148)	binding, surface plasmon resonance	brain-derived TDP-43 aggregates	4.69 nM	–	SPR response	1.47 RU
Cc1cn(CC(=O)N(CC(=O)N[C@H]2COC[C@@H]2N(CC(=O)NCCOCCOCC(N)=O)C(=O)Cn2cnc3c(N)ncnc32)[C@H]2COC[C@@H]2NC(=O)CN(C(=O)Cn2cnc3c(N)ncnc32)[C@H]2COC[C@@H]2NC(=O)CN(C(=O)Cn2cnc3c(=O)[nH]c(N)nc32)[C@H]2COC[C@@H]2NC(=O)CN(C(=O)Cn2cc(C)c(=O)[nH]c2=O)[C@H]2COC[C@@H]2NC(=O)CN(C(=O)Cn2cnc3c(=O)[nH]c(N)nc32)[C@H]2COC[C@@H]2NC(=O)CN(C(=O)Cn2cc(C)c(=O)[nH]c2=O)[C@H]2COC[C@@H]2NC(=O)CN(C(=O)Cn2cnc3c(N)ncnc32)[C@H]2COC[C@@H]2NC(=O)CN(C(=O)Cn2cnc3c(=O)[nH]c(N)nc32)[C@H]2COC[C@@H]2N)c(=O)[nH]c1=O	complementary RNA	duplex formation, UV melting curve fit	PBS	1 µM	–	ΔS	-174.1 ± 1.2 cal/mol/K
COC1CN([C@H]2CC[C@H]([C@@]3(C)Oc4c(Cl)cc(C(=O)NCc5c(SC)cc(C)[nH]c5=O)c(C)c4O3)CC2)C1	–	RNA-seq, refers to: PIAS2	human, whole blood	dose not given, 24 h	relative to: pretreatment baseline	log2 fold change	1.34
CC(=O)N[C@H]1[C@H]([C@H](O)[C@H](O)CNC(=O)c2ccc(-c3ccccc3)cc2)O[C@@](OCc2cn(CC(O)Cn3c([N+](=O)[O-])cnc3C)nn2)(C(=O)O)C[C@@H]1O (stereo partly drawn)	CD22 (Homo sapiens, UniProt P20273)	isothermal titration calorimetry	–	–	–	-TΔS	1.09 ± 0.28 kcal/mol
CCC1(CC)C(=O)N(c2cccc(CN3CCN(Cc4ccc(Br)c5ccccc45)CC3)c2)C1=O.O=C(O)C(F)(F)F	Dipeptidyl peptidase 8 (Homo sapiens, UniProt Q6V1X1)	inhibitor	–	together with: GP-AMC substrate	relative to: Ki' DPP9 over Ki' DPP8	selectivity ratio	> 13
O=C(NCC[C@H](NC(=O)c1cccc2ccccc12)c1nc2ccccc2[nH]1)c1ccc([N+](=O)[O-])o1	STING1 H232R	reporter gene, inhibitor	THP1-Dual KI-hSTING-R232	24 h, 1 h preincubation, together with: diABZI 500 nM	–	EC50	24 µM
COC(=O)[C@@]1(C)C=C(C(=O)OC(C)(C)C)C(=O)CC1	MAPK8 (Homo sapiens, UniProt P45983)	D-peptide binding, inhibitor, FP peptide displacement	–	15.62 µM	lower is stronger displacement	fraction bound	0.861
N#CN1CC[C@H](C(=O)Nc2nc3c(s2)CN(C(=O)Cn2cc(COCCOCCOCCOCCNC(=O)CCCC[C@@H]4SC[C@@H]5NC(=O)N[C@@H]54)nn2)CC3)C1	Isochorismatase domain-containing protein 1 (Homo sapiens, UniProt Q96CN7)	probe binding, affinity probe, neutravidin pull-down LC-MS/MS	HEK293T, cell lysate	5 µM, 1 h, mean of three replicates, unit not given	higher = more pulled down	iBAQ abundance	2.43e+08
CC[C@H](C)[C@@H]1NC(=O)[C@H](Cc2ccc(O)cc2)NC(=O)[C@H](Cc2ccccc2)NC(=O)[C@H](Cc2ccccc2)NC(=O)[C@H](Cc2ccccc2)NC(=O)CSC[C@@H](C(=O)N[C@@H](Cc2c[nH]cn2)C(N)=O)NC(=O)[C@H](CC(N)=O)NC(=O)[C@H](Cc2c[nH]c3ccccc23)NC1=O	STING1 H232R	thermal stability, DSF	–	50 µM	–	ΔTm	7.07 °C
O=C(CCCCCCS)Nc1ccccc1	HDAC8 (Homo sapiens, UniProt Q9BY41)	ITC	triethanolamine buffer	concentration not given, pH 7.5	–	binding stoichiometry	0.8
CCCCCC(O)/C=C/C=O (stereo not drawn)	Ribonucleoside-diphosphate reductase large subunit (Homo sapiens, UniProt P23921)	competitive isoTOP-ABPP, refers to: RRM1 cysteine peptide	Ramos soluble proteome	100 µM, together with: iodoacetamide probe	relative to: DMSO over compound-treated, higher = stronger cysteine blockade	isoTOP-ABPP competition ratio	1.4
CCOC(=O)[C@@](CC)(CCCSCCOCCOCCNC(=O)OC(C)(C)C)NC(=O)c1ccc(C2CC2)c(Cc2ccc(F)cc2)n1	Cnr2 (Mus musculus, UniProt P47936)	cAMP, agonist	–	–	–	Emax	44%

Excerpt of the above:
SMILES	target or system	assay	test system	conditions	scale	quantity	result
COC1CN([C@H]2CC[C@H]([C@@]3(C)Oc4c(Cl)cc(C(=O)NCc5c(SC)cc(C)[nH]c5=O)c(C)c4O3)CC2)C1	–	RNA-seq, refers to: PIAS2	human, whole blood	dose not given, 24 h	relative to: pretreatment baseline	log2 fold change	1.34
